Values quoted from earlier work that unrelated publications cite.
Compare with care: the assays were run in different laboratories. “And” joins repeats or separate records; there may be more than shown. ± marks the error that the study gave.

The EC50 of Clc1ccc(CN2CCCC3=CC4CC(CN5CCCCC45)C32)cc1Cl (stereo not drawn) is reported as 4.8 µM (Ebola virus; viral infection).
Nc1c(C(=O)NCc2ccc(F)cc2F)c(=O)n(O)c2ncccc12 has an EC50 of 0.0064 ± 0.0023 µM (HIV-1; viral replication; integrase R263K mutant).
C=C1CC[C@@H]2[C@](C)(COC(C)=O)[C@H](OC(C)=O)CC[C@@]2(C)[C@@H]1C[C@H](SC(=S)N1CCN([C@@H](c2ccccc2)c2ccc(Cl)cc2)CC1)C1=CCOC1=O has an inhibition of greater than 50% (Replicase polyprotein 1ab, main protease (rep, Severe acute respiratory syndrome coronavirus 2, UniProt P0DTD1); 10 µM).
The selectivity index of CCc1nc2c(nnn2-c2cccc(OC(C)C)c2)c(=O)[nH]1 is reported as greater than 600 (Chikungunya virus; baseline: CC50 over EC50).
Under inhibition, O=C(Cc1cccnc1)c1cccs1 is recorded as “no inhibition” (Replicase polyprotein 1ab, main protease (rep, Severe acute respiratory syndrome-related coronavirus, UniProt P0C6X7); inhibitor; 100 µM).
CC(=O)N[C@@H](CCCNC(=N)N)C(=O)N[C@@H](CCCNC(=N)N)C(=O)N[C@@H](Cc1ccc2ccccc2c1)C(=O)N[C@H]1CSSC[C@@H](C(=O)N[C@@H](CCCNC(=N)N)C(N)=O)NC(=O)[C@H](CCCNC(N)=O)NC(=O)[C@H](CCCNC(=N)N)NC(=O)[C@H](Cc2ccc(O)cc2)NC(=O)[C@@H]2CCCN2C(=O)[C@@H](CCCNC(N)=O)NC(=O)[C@H](CCCCN)NC(=O)[C@H](CCCNC(N)=O)NC(=O)[C@H](Cc2ccc(O)cc2)NC1=O gave an EC50 of 0.029 µM (HIV; viral replication).
With O=C1[C@@H](Oc2ccccc2)[C@@H](c2ccc(Cl)cc2)N1CCCn1cnc2c(NCc3ccccc3)ncnc21 the EC50 was 17.1 µM (Chikungunya virus; viral replication).
C[n+]1cn(C2OC(COP(=O)(O)OP(=O)(O)O)C(O)C2O)c2nc(N)[nH]c(=O)c21 (stereo not drawn): enzyme activity “inhibited” (vaccinia virus D10 MBP fusion; inhibitor; concentration not given, single turnover).
With Cc1cc(C#N)cc(C)c1Oc1nc(NC2CCN(Cc3ccc(S(N)(=O)=O)cc3)CC2)nc2ccsc12 the EC50 was 0.0029 µM (HIV-1; viral cytopathic effect, MTT; MT-4, K103N mutant).
O=C(NCc1ccc(F)cc1F)c1cn2ccn(CCCCO)c(=O)c2c(O)c1=O has an EC50 of 0.0307 µM and > 0.03 µM (HIV-1 integrase S230N; viral replication; HIV-1; single-round vector).
Under enzyme activity, C[n+]1cn(C2OC(COP(=O)(O)OP(=O)(O)OP(=O)(O)O)C(O)C2O)c2nc(N)[nH]c(=O)c21 (stereo not drawn) is recorded as “inhibited” (vaccinia virus D10 MBP fusion; inhibitor; concentration not given, single turnover).
With NC(=O)c1ccc2c(c1)C(=O)C(=O)N2Cc1ccc2ccccc2c1 the IC50 was 0.045 µM (SARS-CoV-2 main protease).
For CCOC(=O)COc1nc(SCC(=O)OCC)nc2ccccc12, the inhibition was 58.4% (SARS-CoV-2 RdRp; 10 µM).
Under inhibition, Oc1cc(O)c2c(c1)OC(c1ccc(O)c(O)c1)C(O)C2c1c(O)cc(O)c2c1OC(c1ccc(O)c(O)c1)C(O)C2 (stereo not drawn) is recorded as “inactive” (Replicase polyprotein 1ab, papain-like protease (rep, Severe acute respiratory syndrome coronavirus 2, UniProt P0DTD1); enzyme activity; concentration not given, together with: DTT).
The EC50 of CC(C)(C#Cc1ccc(-c2ccc(Cl)c3c(NS(C)(=O)=O)nn(CC(F)(F)F)c23)c([C@H](Cc2ccccc2)NC(=O)Cn2nc(C(F)(F)F)c3c2C(F)(F)[C@@H]2C[C@H]32)n1)S(C)(=O)=O is reported as 0.444 µM (HIV-1; viral replication).

For quick reference, copied from above:
Under inhibition, Oc1cc(O)c2c(c1)OC(c1ccc(O)c(O)c1)C(O)C2c1c(O)cc(O)c2c1OC(c1ccc(O)c(O)c1)C(O)C2 (stereo not drawn) is recorded as “inactive” (Replicase polyprotein 1ab, papain-like protease (rep, Severe acute respiratory syndrome coronavirus 2, UniProt P0DTD1); enzyme activity; concentration not given, together with: DTT).
